Experimental data of several laboratories.
Parts stem from different laboratories: compare values within a part only. Positions count from the first letter of the parent shown.

Series 1
Target: RNA binding protein fox-1 homolog 2, RRM domain, GST-SBP tag (RBFOX2, Homo sapiens, UniProt O43251-10, residues 100-194)
Method: RNA Bind-n-Seq
Molecule type: RNA
Matrix: in vitro
Tested at: 365 nM
Notes: natural RNA segment, single round, ends assumed
Relative to: no-protein control
Reading: higher = stronger binding
Construct (chain): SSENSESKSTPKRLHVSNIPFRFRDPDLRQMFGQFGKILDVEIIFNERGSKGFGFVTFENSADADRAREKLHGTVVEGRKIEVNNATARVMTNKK
| Sequence | RBNS enrichment (R) |
| --- | --- |
| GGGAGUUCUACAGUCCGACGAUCCUACAUGGACAAGCUGUUUUCUUUUCUAGGUUACUGAUAACCCCUACAAUUUUCGACUUAACUUCAAAACACAGUAUUGUGUUAUCUAUCACAUAACAGGACCAUGUUUUUGGAAUUCUCGGGUGCCAA | 0.433 |
| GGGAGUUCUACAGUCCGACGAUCCUAAUUUAUUUUGUCUUGAGUUGUACUGCGAGAGAAGAAUAUGGGGUUUUGUAUGCCCGUGUUCCUUAAAGCCAAGGGUUUGAAAGCCACGCUGGUCUUCUGAGAUUCCAUGGAAUUCUCGGGUGCCAA | 0.233 |
| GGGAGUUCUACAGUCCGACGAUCUAGUUCCGUUGUCAUCAAGCAGGAAGCAAAUGCAACACCGACCAAGGCAGUUUAGGUCAAGAGCUGAGCCAAGGUGCUUGAGGAAGGCUUUGCUACAGGAGUGUAGAGACUGGAAUUCUCGGGUGCCAA | 0.312 |
| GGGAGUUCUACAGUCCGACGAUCCUCAUUACUAAUAUUUGUUGUAAAAGUGAAACUUGUUUGCCGACCAAUAAACAACUGAUUGAGAUUUAGAAGAGAUUGCUUUGACGUAUGUACUGUAUUAUCAAGUCCUCUGGAAUUCUCGGGUGCCAA | 0.334 |
| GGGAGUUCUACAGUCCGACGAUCUUGACAAGUCGGAGAAGGCUCCUGCGUUCAGAAAUGAGCCUGCCUGCAGAGUAUAGGGGCCUGAAAGUUUUAUGAAACGGGUGUAAUAUCUCCUCUGCCUGUGACUUGGGUGGAAUUCUCGGGUGCCAA | 3.05 |
| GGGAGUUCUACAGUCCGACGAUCGUUCUGCUCUUUUCUUCAUUUCUUUCCAGAACAACUCUUUCCCACCCCAACACCACUGCCACCACCCCUCUUUUUAUCCUGGUGUGAAACAAUGGUAAUUUGAUAUAUGGUGGAAUUCUCGGGUGCCAA | 0.592 |
| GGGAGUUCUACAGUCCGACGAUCCAUAGAAAAUCCUUUUUUGCUUUUCCUUUUGAGACAGAGUUUUGGUAGCUCCUACCAGCCUCCAAUUCUCUAUGUAGCUGAAGAUGACCUUGACUACCUGAGUUUCCUGUUGGAAUUCUCGGGUGCCAA | 0.26 |
| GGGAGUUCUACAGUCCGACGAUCUAUUUGUAUUUAAAAUAACUAUUAAAUGAGCAUUUUGCACAUGGGCCCACAGUGUCCUGUUGGCCAGCGGGGUUCACGGCUAGUGUCUGGAAGCCUGCUGGCCUCGGGUAUGGAAUUCUCGGGUGCCAA | 0.644 |

Series 2
Target: CCNE2, cyclin fold, Cln2 fusion (human)
Method: yeast growth competition, sequencing
Matrix: yeast
Notes: strong parent motif
Relative to: not given
Reading: higher = stronger binding
Starting sequence: RBL2 docking peptide (human); STTRRRLFVENDS
| Substitution | normalised enrichment score |
| --- | --- |
| V9D | 3.28 |
| F8K | 0.377 |
| T3K | 1.02 |
| S13P | 5.14 |
| F8P | 1.26 |
| T3G | 2.39 |
| R6E | -0.015 |
| N11F | 4.16 |
| E10R | 1.49 |
| S13Y | 4.21 |
| F8H | -0.415 |
| T3Y | 5.84 |
| N11H | 3.67 |
| T3Q | 0.907 |
| R5Y | 0.8 |

Series 3
Target: Ras GTPase-activating protein-binding protein 1, RRM domain (G3BP1, Homo sapiens, UniProt Q13283)
UniProt Q13283, sequence (whole entry, looked up): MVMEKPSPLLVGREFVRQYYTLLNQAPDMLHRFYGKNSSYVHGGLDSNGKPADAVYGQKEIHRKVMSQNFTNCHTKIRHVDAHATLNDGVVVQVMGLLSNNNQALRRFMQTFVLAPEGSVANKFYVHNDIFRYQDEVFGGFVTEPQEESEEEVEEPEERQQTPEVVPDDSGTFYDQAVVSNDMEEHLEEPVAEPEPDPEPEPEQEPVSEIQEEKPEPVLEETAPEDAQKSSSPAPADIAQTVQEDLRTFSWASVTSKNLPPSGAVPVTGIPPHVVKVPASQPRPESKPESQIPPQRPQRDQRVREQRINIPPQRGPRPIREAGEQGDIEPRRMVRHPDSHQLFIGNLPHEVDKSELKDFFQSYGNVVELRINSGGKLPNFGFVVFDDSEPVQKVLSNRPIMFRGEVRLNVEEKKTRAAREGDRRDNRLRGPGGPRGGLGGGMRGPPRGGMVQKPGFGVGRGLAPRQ
Method: RNA Bind-n-Seq
Molecule type: RNA
Matrix: in vitro
Tested at: 1 µM
Notes: whole 134-nt RNA, ends assumed
With: 150 mM KCl
Relative to: input library
Reading: higher = stronger binding
| Sequence | log2 enrichment |
| --- | --- |
| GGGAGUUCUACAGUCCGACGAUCCUCAAGUCCUGUGCUACACAUCGUAUGUACCGAAUCGGUUUGGAGGUUUUUGGAAAGUAUUAUGUUACGCCGUUCGGAUCUGCACUUCCAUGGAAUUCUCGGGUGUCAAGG | -0.252 |
| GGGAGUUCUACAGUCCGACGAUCCAAGUCCUGUGCUACACAUCGUAUGUACCGAAUCGGGUGGGUUUGGGAAAAAGGGAAAGUAUUAUGUUACGCCGUUCGGAUCUGCACUUCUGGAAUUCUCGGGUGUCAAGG | 0.935 |
| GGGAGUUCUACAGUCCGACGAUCGUCCUGUGCUACACAUCGUAUGUACCGAAUCGGGGAAAAAAAGGGGAAAGGGGAGGGGAAAGUAUUAUGUUACGCCGUUCGGAUCUGCACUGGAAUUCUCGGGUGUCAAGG | 1.1 |
| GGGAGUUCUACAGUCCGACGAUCAGUCCUGUGCUACACAUCGUAUGUACCGAAUCGGGAAAAAAAGGGUUUUUGGGUGGGAAAGUAUUAUGUUACGCCGUUCGGAUCUGCACUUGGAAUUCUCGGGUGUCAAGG | 0.646 |
| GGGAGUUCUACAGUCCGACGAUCCACAGACAACACGCACCCACACAGACACAGAGGGAAGGGGUUGCGAUGGGGACAGGGUGCACAGCAGGGCGGGGUAGGACCCCAGCCCCUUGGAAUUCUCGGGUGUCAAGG | -0.182 |
| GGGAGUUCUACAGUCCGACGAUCCCUGUGCUACACAUCGUAUGUACCGAAUCGGGGAAAAAAGGGGAAAAAAGGGGAAAAAAGGAAAGUAUUAUGUUACGCCGUUCGGAUCUGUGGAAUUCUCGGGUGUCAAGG | -0.11 |
| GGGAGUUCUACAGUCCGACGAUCCUGUGCUACACAUCGUAUGUACCGAAUCGGGUUUUUUUGGGUUUUUUUGGGAAAAAAAGGGAAAGUAUUAUGUUACGCCGUUCGGAUCUGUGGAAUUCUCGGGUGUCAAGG | -0.284 |
| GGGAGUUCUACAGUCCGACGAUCUCAAGUCCUGUGCUACACAUCGUAUGUACCGAAUCGGUUUGGUUUGGGGUUUGGGAAAGUAUUAUGUUACGCCGUUCGGAUCUGCACUUCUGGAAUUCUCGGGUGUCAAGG | -0.315 |
| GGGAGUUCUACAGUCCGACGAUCCACAGACAACACGCACCCACACAGACACAGAGGGAAGGGGUUGGGAUGGGGACAGGGUGCACAGCAGGGCGGGGUGGGACCCCAGCCCCUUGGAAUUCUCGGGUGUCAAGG | -0.295 |

Series 4
Target: Interferon regulatory factor 5, full length, phosphomimetic (IRF5, Homo sapiens, UniProt Q13568-2, residues 1-514, K96S/S451D/S453D/S456D/S462D)
Method: protein-binding microarray
Molecule type: double-stranded DNA, one strand shown
Matrix: in vitro
Tested at: 250 nM
Notes: 60-bp whole probe
With: salmon DNA 0.4 mg/ml
Relative to: random background probes
Reading: higher = stronger binding
All sequences stand within: GCCTAGCAC … GTCTTGATTCGCTTGACGCTGCTG
| Sequence | log fluorescence [z-score] |
| --- | --- |
| CTGCTGGCCTGTTGCTGGAAGTGCTAG | -0.377 |
| GAGGATTTCAGTATCGAGACGTGCTAG | 3.03 |
| TTAAGTTTCCTTTTCCTTTAGTGCTAG | 2.57 |
| GACGATTTCAGTCTGGAGACGTGCTAG | 1.08 |
| TTAGGACCGGACTTTCGGTTAGTGCTA | 9.44 |
| TTTCCCTAGAAGACGAAAGAGTGCTAG | 4.14 |
| TTAGGACTGGGGTATCGTTTAGTGCTA | 0.625 |
| GCCGGTATCGACACTGGGGACGTGCTA | 2.09 |
| TTAGCTTTCGGGACTGGATTAGTGCTA | 7.78 |
| GACGGTTTCGGGAGTGGGGACGTGCTA | 4.38 |
| GGCGGTTTCCTACTGCTGACGTGCTAG | 0.0779 |
| TACGGTTCCCTTTTCCTGACGTGCTAG | 0.446 |
